Experimental data of several laboratories.
A part holds a random share of what one study measured. Substitutions count along the parent as printed.

Sample 1
Target: Phosphate system positive regulatory protein PHO4, full length, GST-tagged (PHO4, Saccharomyces cerevisiae, UniProt P07270, residues 1-312)
Method: competition protein-binding microarray
Molecule type: double-stranded DNA, one strand shown
Medium: in vitro
Concentration: 2 µM
Setting: whole 60-bp probe, lowest competitor level
Added: Cbf1 competitor, 0.05 µM
Direction: higher = stronger binding
Shared flanks, not repeated: … GTCTTGATTCGCTTGACGCTGCTG
Construct (chain): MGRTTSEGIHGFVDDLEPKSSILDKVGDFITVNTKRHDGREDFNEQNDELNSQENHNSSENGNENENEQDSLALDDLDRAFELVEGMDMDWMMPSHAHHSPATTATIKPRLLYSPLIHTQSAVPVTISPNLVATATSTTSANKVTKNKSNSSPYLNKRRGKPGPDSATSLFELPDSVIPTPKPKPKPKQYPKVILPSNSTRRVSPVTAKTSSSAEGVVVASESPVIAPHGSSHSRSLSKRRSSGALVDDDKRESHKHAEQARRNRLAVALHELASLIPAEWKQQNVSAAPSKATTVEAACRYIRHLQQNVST
Oligonucleotide | fluorescence intensity [a.u.]
CGTCCTAGTGATTGTCAAGTGGGTGCCATGAGGAAG | 6280
CGGGGTTAAGTTTGTCACAAGACTTGCTTGCAGCAG | 4250
CGGGGTTAAGTTTGCGTTGTGGGTGGCTTGCAGCAG | 5160
CGGGGTTAAGTTTGTCAAGTGGGTGGCTTGCAGCAG | 3980
ACAATCGCATAATCGCACGTATATACAGGCACACAA | 6360
GGTGGTTATGGCTGGGTCGTGACGAACTGTGTGTTC | 7000
CTTGCCAGAGGCATCTGCTAAGGCGTCCCACAAATC | 3200
ACACAATAAGTAAATATATTTTAAAAAAGTACTCCG | 3230
GCCAGTAATTTACTACACGTGTATATATCAGAAAAA | 18400
CCCAGACCCACCCAGATCGTGATGGTTGTTACCATC | 5690
CAGTTCTCGACCCATCACGTGTGTTCTCGTTTAGCG | 17400
GGCCGCGGAGCGCTGAACGTGATGGTCCATTGTATG | 7970
CAATGCACCCAACTGCATGTGCCATTGTGCATCTAC | 9550
AAAGCGGTAATTTGTCACGCCACTTCACATATCTAT | 5990

Sample 2
Target: CCNE1, cyclin fold, Cln2 fusion (human)
Method: yeast growth competition, sequencing
Medium: yeast
Setting: weak parent motif
Relative to: not given
Direction: higher = stronger binding
Starting sequence: MICAL3 docking peptide (human); LQLRRQLSFSEDS
Change | normalised enrichment score
LQLRRQLSFWEDS [S10W] | 0.36
LQLRCQLSFSEDS [R5C] | 0.193
LQLRRQLSFSKDS [E11K] | 0.438
LQLERQLSFSEDS [R4E] | -0.287
LQLRRQLSFSEGS [D12G] | 0.989
LQLRRILSFSEDS [Q6I] | 0.598
LQLRRQISFSEDS [L7I] | 0.516
LQLRRQLSFSETS [D12T] | 1.27
LQQRRQLSFSEDS [L3Q] | 0.0512
LQLRRYLSFSEDS [Q6Y] | 0.48

Sample 3
Target: Histone acetyltransferase KAT6A, winged helix 1, GST fusion (KAT6A, Homo sapiens, UniProt Q92794, residues 1-85)
Method: protein binding microarray
Molecule type: double-stranded DNA, one strand shown
Medium: in vitro
Concentration: not given
Setting: 8-mer, flanks averaged, mean of 2 arrays, mostly near background
Relative to: not given
Direction: higher = stronger binding
Target sequence (chain): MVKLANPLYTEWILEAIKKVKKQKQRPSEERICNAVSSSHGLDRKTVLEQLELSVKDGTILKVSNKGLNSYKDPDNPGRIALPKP
Oligonucleotide | E-score
ATCCTAAA | -0.099
AGTCTACG | 0.0224
GTGCCACA | -0.152
ACTCCAAC | -0.111
CTGGTATC | -0.16
ACTTCTAC | -0.27
GAATATCA | -0.0569
AATAGAAC | -0.154
GGAAGGCA | -0.0954

Further values, each from its own experiment
Molecule | target | test | system | conditions | how to read | endpoint | result
PhoQ, residues 284 288 289 292 302 303 ASTSDA | PhoP, residues 12 14 15 18 19 LFHKL (Escherichia coli, UniProt P23836) | Sort-seq, item: YFP reporter | E. coli | PhoQ-PhoP variant library, added: 10 µM Mg2+ | relative to: high Mg2+ state, higher = stronger signaling | fold induction | 15.2

Excerpt of the above (sample 2):
Change | normalised enrichment score
LQLRRQLSFSETS [D12T] | 1.27
LQLRRQLSFSEGS [D12G] | 0.989
LQLRRILSFSEDS [Q6I] | 0.598
LQQRRQLSFSEDS [L3Q] | 0.0512
